Results of several laboratories.
Parts stem from different laboratories: compare values within a part only. Positions count from the first letter of the parent shown.
Sequence of UniProt P07949 (whole entry, unmodified, looked up): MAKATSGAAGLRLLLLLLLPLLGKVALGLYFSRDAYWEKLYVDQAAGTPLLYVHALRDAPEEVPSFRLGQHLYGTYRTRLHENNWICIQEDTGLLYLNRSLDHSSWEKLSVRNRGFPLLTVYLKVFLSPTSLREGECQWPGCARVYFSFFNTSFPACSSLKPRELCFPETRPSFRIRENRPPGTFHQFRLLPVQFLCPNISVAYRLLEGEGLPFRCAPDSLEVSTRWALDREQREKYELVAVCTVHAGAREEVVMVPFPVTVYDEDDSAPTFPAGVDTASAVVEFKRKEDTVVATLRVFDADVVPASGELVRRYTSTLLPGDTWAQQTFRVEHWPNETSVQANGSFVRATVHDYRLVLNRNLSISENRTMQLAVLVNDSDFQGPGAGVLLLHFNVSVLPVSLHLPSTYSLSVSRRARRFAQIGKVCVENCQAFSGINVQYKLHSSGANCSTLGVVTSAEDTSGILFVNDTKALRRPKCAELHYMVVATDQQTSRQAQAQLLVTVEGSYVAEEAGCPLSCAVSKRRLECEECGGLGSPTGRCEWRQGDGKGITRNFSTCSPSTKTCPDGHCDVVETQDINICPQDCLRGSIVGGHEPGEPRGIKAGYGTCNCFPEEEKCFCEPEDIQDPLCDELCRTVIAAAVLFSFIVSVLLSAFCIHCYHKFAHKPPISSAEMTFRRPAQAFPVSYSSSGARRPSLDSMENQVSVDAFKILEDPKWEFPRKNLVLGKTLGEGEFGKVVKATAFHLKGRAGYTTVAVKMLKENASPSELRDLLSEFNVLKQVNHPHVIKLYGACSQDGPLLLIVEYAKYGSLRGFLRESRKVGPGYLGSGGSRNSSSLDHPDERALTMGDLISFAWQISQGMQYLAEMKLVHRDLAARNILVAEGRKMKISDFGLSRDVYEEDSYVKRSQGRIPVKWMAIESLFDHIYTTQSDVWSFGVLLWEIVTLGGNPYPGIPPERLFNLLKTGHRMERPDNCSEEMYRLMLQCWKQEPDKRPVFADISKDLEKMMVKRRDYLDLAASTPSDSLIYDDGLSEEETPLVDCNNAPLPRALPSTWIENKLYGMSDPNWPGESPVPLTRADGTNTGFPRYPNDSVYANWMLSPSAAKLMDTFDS
Sequence of UniProt P27361 (whole entry, looked up): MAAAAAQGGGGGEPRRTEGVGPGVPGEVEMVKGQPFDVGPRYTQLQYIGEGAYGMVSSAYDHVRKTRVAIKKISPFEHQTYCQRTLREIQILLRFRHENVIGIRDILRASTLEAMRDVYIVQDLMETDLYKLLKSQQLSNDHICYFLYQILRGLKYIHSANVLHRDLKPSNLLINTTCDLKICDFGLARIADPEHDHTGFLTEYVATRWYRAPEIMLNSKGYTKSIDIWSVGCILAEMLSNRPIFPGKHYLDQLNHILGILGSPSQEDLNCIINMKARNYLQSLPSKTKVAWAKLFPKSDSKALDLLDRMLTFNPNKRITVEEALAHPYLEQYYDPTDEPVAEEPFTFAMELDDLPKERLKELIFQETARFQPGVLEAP
Sequence of UniProt Q15375 (whole entry, looked up): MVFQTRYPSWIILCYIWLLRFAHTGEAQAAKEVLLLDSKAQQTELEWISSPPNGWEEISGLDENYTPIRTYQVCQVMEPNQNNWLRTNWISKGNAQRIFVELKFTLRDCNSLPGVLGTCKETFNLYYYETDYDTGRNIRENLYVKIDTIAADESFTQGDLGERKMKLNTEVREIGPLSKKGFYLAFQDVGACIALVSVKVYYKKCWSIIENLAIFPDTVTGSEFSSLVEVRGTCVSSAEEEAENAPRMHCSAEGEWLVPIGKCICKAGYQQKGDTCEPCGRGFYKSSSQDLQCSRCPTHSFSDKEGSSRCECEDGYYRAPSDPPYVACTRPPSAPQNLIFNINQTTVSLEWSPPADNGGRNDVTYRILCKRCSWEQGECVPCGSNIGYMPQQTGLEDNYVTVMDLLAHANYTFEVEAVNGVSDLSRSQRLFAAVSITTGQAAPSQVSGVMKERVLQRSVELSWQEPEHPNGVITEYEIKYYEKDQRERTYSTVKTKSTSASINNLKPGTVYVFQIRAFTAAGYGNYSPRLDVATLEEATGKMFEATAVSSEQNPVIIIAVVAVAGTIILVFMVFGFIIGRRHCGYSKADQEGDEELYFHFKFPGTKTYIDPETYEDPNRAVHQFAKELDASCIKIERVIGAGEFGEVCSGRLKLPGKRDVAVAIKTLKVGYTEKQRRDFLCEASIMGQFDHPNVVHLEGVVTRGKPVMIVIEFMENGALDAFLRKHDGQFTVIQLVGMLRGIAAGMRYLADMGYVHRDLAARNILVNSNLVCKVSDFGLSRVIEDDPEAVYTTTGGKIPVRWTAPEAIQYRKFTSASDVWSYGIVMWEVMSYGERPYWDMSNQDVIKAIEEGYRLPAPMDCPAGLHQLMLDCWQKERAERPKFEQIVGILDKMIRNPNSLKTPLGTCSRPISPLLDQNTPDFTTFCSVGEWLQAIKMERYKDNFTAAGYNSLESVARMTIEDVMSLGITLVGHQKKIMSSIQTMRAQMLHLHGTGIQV
Sequence of UniProt P16234 (whole entry, looked up): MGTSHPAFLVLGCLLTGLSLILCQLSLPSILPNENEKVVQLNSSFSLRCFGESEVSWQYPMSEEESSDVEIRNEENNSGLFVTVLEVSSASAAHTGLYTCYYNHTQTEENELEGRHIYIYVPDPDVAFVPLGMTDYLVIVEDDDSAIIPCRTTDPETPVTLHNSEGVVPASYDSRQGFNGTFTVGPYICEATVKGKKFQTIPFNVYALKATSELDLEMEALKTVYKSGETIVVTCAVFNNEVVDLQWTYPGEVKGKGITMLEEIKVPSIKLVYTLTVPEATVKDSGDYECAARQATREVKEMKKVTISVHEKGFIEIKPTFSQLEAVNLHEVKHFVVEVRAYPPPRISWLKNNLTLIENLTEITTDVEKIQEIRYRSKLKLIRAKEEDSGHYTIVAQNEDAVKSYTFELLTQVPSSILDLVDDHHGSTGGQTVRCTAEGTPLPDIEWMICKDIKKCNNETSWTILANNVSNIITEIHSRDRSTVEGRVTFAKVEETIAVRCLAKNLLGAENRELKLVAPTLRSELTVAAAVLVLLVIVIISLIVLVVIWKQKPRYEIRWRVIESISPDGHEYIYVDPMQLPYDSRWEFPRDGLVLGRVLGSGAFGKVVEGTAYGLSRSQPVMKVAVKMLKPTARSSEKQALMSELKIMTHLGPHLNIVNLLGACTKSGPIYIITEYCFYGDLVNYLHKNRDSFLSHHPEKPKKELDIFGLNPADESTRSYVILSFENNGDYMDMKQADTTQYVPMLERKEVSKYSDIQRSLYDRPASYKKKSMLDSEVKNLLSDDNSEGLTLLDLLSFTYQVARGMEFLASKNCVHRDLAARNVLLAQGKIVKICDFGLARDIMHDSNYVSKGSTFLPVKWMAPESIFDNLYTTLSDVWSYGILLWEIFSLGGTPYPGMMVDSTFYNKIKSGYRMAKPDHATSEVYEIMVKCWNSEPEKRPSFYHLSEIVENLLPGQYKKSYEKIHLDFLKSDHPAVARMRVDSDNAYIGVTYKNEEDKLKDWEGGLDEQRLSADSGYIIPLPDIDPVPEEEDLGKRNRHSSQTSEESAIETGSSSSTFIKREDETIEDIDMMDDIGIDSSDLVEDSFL
Sequence of UniProt P31152 (whole entry, looked up): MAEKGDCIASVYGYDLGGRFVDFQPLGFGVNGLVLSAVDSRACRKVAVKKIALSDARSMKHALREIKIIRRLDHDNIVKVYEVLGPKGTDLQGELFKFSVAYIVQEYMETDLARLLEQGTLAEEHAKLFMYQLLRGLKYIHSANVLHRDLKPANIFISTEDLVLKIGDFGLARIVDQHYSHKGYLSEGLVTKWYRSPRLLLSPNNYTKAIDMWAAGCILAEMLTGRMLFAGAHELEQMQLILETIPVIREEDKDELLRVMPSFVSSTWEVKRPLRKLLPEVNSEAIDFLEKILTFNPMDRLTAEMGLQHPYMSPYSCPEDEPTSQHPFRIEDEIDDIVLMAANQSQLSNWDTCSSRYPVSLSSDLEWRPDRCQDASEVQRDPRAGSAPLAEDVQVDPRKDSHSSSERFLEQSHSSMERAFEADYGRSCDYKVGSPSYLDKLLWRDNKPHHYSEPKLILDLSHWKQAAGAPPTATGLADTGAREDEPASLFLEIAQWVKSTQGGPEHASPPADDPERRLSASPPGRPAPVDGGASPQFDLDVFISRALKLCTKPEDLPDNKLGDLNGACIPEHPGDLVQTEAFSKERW
Sequence of UniProt P11362 (whole entry, looked up): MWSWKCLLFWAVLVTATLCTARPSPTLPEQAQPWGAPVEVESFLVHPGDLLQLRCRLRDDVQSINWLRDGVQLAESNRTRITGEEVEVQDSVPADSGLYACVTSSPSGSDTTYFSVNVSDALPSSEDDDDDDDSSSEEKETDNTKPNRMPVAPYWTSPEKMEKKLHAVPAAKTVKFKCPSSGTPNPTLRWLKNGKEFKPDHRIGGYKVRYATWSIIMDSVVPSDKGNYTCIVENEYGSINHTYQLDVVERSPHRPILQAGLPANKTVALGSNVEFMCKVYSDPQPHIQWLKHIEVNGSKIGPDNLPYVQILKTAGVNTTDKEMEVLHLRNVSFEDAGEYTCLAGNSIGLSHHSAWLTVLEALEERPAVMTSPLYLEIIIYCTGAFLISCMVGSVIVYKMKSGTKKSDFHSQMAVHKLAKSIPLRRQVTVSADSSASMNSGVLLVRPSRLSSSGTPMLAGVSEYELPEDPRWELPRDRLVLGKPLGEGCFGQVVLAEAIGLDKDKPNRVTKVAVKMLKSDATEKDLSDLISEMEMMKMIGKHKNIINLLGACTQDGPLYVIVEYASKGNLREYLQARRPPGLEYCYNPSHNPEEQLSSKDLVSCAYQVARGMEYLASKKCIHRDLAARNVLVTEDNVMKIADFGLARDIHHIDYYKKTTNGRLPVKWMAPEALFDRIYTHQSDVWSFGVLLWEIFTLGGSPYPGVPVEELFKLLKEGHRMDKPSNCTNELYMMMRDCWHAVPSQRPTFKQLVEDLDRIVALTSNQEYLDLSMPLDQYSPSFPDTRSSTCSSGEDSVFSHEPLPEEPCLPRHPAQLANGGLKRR

Sample 1
Target: CEP164, C-terminal peptide (human)
Technique: DHFR complementation, deep sequencing
Medium: yeast
Notes: single substitutions, model-inferred values
Baseline: wild type
Direction: higher = weaker binding
Parent: PDZK1, PDZ domain 2 (human); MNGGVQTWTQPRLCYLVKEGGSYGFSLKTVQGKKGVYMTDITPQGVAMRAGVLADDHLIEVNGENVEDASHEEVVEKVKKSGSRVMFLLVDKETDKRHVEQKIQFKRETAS; partner HNRVKVYRF
Substitution | binding free energy change [kcal/mol]
K92N | 0.134
E72P | 0.941
D55M | 0.572
D95M | -0.136
E64N | 0.146
A47W | 0.996
R84L | 0.695
Q44M | 0.0267

Sample 2
Target: RNA binding protein fox-1 homolog 2, RRM domain, GST-SBP tag (RBFOX2, Homo sapiens, UniProt O43251-10, residues 100-194)
Technique: RNA Bind-n-Seq
Form: RNA
Medium: in vitro
Tested at: 365 nM
Notes: natural RNA segment, single round, ends assumed
Baseline: no-protein control
Direction: higher = stronger binding
Shared flanks, not repeated: GGGAGUUCUACAGUCCGACGAUC … UGGAAUUCUCGGGUGCCAA
Residues (chain): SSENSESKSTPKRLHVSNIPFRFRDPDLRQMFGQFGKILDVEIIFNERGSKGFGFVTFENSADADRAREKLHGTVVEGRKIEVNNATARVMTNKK
Sequence | RBNS enrichment (R)
AAGCUCAUCUGAGUUUGACCAACAUGUUAGGCACUUACAAGAGCUGAAAUUUUUUUUUUAAUCACAGAAAGUUGAACCCUUCAACAAAUGUAAUAUUAAAAUUCCAAGUA | 0.298
GAAGGUGUGAAAUUGUAAAUAUUUUUAUCUAAGUAAAUGUUAAGCAGUUGUUUUAAAAAUACUUAAUAAAAUAAGCUUUUUUCCUGUGGAAGAGAAAUGGUCUCCUUGGU | 0.921
CCAGAUUGGCCCAGCUGCUGAUAGGUGAUUUUUUUUGCCCAUGAAUCAUGUAUCUCUUAGAGAAGAAAAUUCUAUGCCCUACCACAUCACAAGAUCUCCUCCUCAGUGUC | 0.351
UAUGAGGUUACCUACAACUACUUAAUGUACUUACACUGUAAGCCUUGUUGCUUUACCCAAGACAAAUGUAAUUUUAUCAUUGCUUAUGUAGUAUUUUUCUUUUGGAAAUG | 0.363
AAGCUACUACAGACUAAAUUUAUGUUUCACCUAGAAUAUAAAACUGUUAGACAUUGGGUUCUCCUUUACGUUGCCCUAUUGCUUUAAUAACAUCAAGAUCUCUCCUAGUU | 0.294
GCCAAAGAAUCUAGGAAAUUAGUUGUAUUUUGUGCAAGCUAAUUUAAAAACAUGAUGGGCUGUUUUAAGACCAGAGUGGAAAUUCAUGAGAGGAACUAUACUACCAAAAG | 0.326
ACAAUCUGAAUAGUGUGCUGUCAGGAGUGGUUUGUCGGAGCAGCGCUUGCCACAAUGAUUCCGUGUUUUUACAGGGCAUUCAACUGCUGCAAAGGUUAACAUAUAAUGCC | 1.02
GGACCCAAGAGAGGAAAAGUUGUAGCUAAAUGUUGAUUUACUUAUAACUAGACGUCUAUGUGAGAAAAUAUAUGUAUACAUAUAUAUGAUAUGCAGAAGUCACUUUUUUU | 0.314

Sample 3
Target: NUAK family SNF1-like kinase 1 (NUAK1, Homo sapiens, UniProt O60285)
Effect on: enzyme activity
Mode: inhibitor
Tested at: 0.5 µM
Baseline: control
Residues (O60285 1-661): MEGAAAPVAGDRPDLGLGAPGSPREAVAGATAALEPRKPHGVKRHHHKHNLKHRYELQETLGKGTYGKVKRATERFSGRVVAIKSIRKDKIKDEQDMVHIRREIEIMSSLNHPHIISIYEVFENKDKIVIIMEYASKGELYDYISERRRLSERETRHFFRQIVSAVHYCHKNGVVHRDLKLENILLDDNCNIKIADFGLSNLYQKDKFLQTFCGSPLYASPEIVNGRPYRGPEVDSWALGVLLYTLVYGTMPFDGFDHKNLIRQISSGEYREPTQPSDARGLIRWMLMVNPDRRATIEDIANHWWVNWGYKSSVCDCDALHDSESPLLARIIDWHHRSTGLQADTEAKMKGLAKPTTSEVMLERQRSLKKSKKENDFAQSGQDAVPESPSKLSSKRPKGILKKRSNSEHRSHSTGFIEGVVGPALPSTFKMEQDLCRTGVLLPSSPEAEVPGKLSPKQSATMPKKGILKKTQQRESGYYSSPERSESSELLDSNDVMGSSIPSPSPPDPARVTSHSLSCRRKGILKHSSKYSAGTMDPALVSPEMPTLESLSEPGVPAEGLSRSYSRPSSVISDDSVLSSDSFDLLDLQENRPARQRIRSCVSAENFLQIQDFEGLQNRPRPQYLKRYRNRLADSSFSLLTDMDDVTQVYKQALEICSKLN
Compound | remaining activity
COc1cc2ncc(-c3ccccc3)nc2cc1OC | 85.6%
CN(C)CCCn1cc(C2=C(c3c[nH]c4ccccc34)C(=O)NC2=O)c2ccccc21 | 25.9%
Cn1cnc2cc3c(Nc4cccc(Br)c4)ncnc3cc21 | 90.5%
COc1cc2ncnc(N3CCN(C(=O)Nc4ccc(Oc5ccccc5)cc4)CC3)c2cc1OC | 88.8%

Sample 4
SMILES: Nc1c(C(=O)NCc2ccc(C(=O)NCCCC3CCCCC3)cc2)cnn1-c1ccccc1
Effect on: cell-free assay
Technique: competition with immobilised ligand
Tested at: 0.1 µM
target | remaining binding
Receptor-type tyrosine-protein kinase FLT3 (FLT3, Homo sapiens, UniProt P36888, D835V/ITD) | 90%
Epidermal growth factor receptor (EGFR, Homo sapiens, UniProt P00533, T790M) | 100%
Calcium/calmodulin-dependent protein kinase type II subunit gamma (CAMK2G, Homo sapiens, UniProt Q13555) | 100%
Mitogen-activated protein kinase 4 (MAPK4, Homo sapiens, UniProt P31152) | 100%
Serine/threonine-protein kinase RIO1 (RIOK1, Homo sapiens, UniProt Q9BRS2) | 95%
Cyclin-dependent kinase 11A (CDK11A, Homo sapiens, UniProt Q9UQ88) | 100%
Mitogen-activated protein kinase 3 (MAPK3, Homo sapiens, UniProt P27361) | 94%
Proto-oncogene tyrosine-protein kinase receptor Ret (RET, Homo sapiens, UniProt P07949, M918T) | 100%
Serine/threonine-protein kinase TBK1 (TBK1, Homo sapiens, UniProt Q9UHD2) | 96%
Tyrosine-protein kinase ABL1, phosphorylated (ABL1, Homo sapiens, UniProt P00519, Y253F) | 100%
STE20/SPS1-related proline-alanine-rich protein kinase (STK39, Homo sapiens, UniProt Q9UEW8) | 96%
Platelet-derived growth factor receptor alpha (PDGFRA, Homo sapiens, UniProt P16234) | 100%
Ribosomal protein S6 kinase alpha-3, C-terminal kinase domain (RPS6KA3, Homo sapiens, UniProt P51812) | 92%
Ephrin type-A receptor 7 (EPHA7, Homo sapiens, UniProt Q15375) | 100%
Fibroblast growth factor receptor 1 (FGFR1, Homo sapiens, UniProt P11362) | 71%
Casein kinase I isoform alpha-like (CSNK1A1L, Homo sapiens, UniProt Q8N752) | 98%
